Measurements from different studies.
Every numbered part comes from another study and shows a few of its results, in no order. Several values in a cell are separate wells, animals, samples, runs or records.
Sequence of UniProt Q13237 (whole entry, looked up): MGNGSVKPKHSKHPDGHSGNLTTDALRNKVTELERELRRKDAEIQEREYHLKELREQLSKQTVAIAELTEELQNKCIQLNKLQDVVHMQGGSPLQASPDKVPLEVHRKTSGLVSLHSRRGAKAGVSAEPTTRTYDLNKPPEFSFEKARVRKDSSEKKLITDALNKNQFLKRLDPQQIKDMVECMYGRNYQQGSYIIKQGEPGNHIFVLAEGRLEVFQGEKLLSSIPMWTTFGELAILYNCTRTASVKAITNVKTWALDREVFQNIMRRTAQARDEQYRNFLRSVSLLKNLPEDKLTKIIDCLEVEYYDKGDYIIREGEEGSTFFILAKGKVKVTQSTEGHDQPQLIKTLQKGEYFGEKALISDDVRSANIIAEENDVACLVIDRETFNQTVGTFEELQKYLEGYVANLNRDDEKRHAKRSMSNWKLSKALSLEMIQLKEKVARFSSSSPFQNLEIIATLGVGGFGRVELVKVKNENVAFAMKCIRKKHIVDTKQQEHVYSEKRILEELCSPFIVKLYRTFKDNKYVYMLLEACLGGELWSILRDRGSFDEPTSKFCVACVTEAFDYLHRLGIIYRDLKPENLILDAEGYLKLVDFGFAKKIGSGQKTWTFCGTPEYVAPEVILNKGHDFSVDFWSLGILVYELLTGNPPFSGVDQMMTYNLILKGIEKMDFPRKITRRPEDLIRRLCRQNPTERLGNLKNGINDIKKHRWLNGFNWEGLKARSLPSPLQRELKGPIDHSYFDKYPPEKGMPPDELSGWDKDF
Sequence of UniProt Q02750 (whole entry, looked up): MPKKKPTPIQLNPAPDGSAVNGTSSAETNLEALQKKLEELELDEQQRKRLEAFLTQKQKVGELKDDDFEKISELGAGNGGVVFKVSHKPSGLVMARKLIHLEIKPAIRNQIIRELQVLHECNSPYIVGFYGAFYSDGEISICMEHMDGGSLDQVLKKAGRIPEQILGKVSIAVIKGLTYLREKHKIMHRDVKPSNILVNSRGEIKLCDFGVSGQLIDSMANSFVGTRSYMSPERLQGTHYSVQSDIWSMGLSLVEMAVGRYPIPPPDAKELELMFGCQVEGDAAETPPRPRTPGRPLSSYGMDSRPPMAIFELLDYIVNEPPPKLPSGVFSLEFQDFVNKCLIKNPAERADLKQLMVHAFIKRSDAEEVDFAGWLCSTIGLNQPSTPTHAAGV
Sequence of UniProt Q6P2M8 (whole entry, looked up): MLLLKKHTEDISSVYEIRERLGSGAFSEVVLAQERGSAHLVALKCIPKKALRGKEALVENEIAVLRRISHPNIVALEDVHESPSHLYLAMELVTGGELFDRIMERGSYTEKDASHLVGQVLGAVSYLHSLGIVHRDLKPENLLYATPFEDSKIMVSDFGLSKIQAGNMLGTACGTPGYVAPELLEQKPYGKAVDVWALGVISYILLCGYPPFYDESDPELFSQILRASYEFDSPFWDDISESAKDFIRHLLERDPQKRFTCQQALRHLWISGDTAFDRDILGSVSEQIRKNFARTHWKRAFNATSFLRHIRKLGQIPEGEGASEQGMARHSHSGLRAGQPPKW
Sequence of UniProt Q9H4B4 (whole entry, looked up): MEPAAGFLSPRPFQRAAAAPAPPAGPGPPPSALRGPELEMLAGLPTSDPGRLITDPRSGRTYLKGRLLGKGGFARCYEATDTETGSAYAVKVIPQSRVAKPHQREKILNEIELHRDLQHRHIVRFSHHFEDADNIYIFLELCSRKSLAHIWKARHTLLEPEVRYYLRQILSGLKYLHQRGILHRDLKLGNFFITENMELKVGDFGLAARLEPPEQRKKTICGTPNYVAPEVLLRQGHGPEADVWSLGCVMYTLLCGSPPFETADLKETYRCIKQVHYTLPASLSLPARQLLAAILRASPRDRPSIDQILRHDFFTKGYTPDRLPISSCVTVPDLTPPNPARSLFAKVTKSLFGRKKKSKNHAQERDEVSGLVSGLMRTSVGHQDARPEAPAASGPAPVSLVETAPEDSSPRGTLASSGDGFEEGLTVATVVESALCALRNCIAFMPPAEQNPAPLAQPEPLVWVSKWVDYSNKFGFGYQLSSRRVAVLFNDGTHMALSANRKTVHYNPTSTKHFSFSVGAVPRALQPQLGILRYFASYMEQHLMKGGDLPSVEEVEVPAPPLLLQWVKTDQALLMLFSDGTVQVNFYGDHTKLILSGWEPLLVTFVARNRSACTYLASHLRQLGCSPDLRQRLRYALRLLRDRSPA
Sequence of UniProt Q9Y5S2 (whole entry, looked up): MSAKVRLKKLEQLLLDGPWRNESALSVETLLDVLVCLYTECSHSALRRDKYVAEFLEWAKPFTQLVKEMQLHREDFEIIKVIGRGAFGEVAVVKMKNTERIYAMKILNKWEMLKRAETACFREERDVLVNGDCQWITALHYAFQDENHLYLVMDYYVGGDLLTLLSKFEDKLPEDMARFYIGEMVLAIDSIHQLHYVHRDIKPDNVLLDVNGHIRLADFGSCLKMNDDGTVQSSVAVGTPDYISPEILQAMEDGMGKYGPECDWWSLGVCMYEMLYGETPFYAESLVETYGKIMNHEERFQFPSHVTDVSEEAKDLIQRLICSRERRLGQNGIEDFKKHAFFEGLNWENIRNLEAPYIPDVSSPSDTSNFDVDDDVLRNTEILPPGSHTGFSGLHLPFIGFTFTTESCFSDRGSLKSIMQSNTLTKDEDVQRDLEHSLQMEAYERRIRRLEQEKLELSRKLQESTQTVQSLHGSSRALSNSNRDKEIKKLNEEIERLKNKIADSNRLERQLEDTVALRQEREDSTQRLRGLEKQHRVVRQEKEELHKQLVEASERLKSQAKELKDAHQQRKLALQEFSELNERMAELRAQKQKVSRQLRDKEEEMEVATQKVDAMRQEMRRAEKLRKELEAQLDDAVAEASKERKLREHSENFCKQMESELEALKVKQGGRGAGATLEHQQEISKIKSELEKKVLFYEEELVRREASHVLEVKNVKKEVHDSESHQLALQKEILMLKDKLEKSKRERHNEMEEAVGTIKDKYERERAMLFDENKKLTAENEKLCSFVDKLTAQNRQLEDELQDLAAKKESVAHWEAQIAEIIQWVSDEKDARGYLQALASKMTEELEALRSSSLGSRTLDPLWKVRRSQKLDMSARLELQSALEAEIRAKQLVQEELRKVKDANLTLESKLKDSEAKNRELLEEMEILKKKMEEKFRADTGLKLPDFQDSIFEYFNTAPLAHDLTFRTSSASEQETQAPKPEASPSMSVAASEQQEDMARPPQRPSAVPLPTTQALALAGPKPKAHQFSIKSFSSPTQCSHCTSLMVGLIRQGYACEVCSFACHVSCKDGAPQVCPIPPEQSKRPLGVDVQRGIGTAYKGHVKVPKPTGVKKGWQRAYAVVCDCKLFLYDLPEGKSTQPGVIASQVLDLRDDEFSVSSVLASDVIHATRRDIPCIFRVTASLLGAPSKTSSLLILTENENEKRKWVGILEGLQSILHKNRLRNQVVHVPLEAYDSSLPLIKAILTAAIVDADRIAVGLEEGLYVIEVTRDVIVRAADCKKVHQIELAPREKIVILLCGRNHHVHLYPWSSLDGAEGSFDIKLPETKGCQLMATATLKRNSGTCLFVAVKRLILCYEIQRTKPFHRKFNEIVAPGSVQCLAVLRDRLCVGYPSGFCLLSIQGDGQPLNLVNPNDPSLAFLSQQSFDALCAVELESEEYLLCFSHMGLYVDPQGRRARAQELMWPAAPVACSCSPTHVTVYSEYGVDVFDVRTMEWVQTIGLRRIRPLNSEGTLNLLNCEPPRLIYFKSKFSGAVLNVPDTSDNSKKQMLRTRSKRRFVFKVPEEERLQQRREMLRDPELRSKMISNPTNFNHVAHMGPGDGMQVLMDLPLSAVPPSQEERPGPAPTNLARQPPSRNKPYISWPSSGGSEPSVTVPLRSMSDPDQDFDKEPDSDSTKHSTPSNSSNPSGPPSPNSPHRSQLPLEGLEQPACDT
Sequence of UniProt P31751 (whole entry, looked up): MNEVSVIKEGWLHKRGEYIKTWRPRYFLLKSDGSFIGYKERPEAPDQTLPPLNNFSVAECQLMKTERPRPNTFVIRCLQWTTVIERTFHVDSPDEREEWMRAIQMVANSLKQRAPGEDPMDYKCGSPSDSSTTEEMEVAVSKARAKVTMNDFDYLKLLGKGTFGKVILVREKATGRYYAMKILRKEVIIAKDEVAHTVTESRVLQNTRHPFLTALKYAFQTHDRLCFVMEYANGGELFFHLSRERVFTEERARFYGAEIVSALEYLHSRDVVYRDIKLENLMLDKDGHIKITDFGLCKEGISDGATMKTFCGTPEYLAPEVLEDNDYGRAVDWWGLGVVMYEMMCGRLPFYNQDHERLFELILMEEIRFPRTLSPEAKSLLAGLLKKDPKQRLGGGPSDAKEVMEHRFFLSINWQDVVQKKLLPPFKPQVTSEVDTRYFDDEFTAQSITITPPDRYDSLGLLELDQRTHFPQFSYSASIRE

Set 1
Cell line: normal organoid sample H
Method: CellTiter-Glo
Host: human
Matrix: normal-adjacent epithelium
Tested at: 1 µM
Relative to: DMSO
Structure (SMILES)	viability
Cc1c(C(=O)O)cc(-c2ccc(C3CCNCC3)cc2)c2ccc(-c3ccc(C(F)(F)F)cc3)cc12	95.3% and 118%
CCOCCn1cc(C(=O)Nc2ccc(-n3nc(-c4cccnc4)cc3C(F)(F)F)cn2)ccc1=O	88.8%
Cc1c(NC(=O)c2ccc(C(C)(C)C)cc2)cccc1-c1cn(C)c(=O)c(Nc2ccc(C(=O)N3CCOCC3)cc2)n1	128% and 109%
CN1CCN(C(=O)C(C)(C)c2ccc(C(=O)Nc3cn4cc(-c5ccncc5)ccc4n3)cc2)CC1	38.4%
O=C(NC[C@@H]1[C@H]2CN(C(=O)OCc3cc(C(F)(F)F)cc(C(F)(F)F)c3)C[C@@H]12)c1ccc2[nH]nnc2c1	97.7%
Cc1ccc2nc(CNCCCOc3ccccc3)cc(O)c2c1	135% and 165%
Cn1nc(C(=O)NCc2ccc(C(=O)O)cc2)cc1-c1ccc2[nH]ccc2c1	83.7%

Set 2
Cell line: A-375
Tested at: 100 µM
Time: 36 h
Structure (SMILES)	viability [%]
NCc1ccc(C(=O)O)cc1	105
C#CCN[C@@H]1CCc2ccccc21	106
COc1ccc(-n2nc(C(N)=O)c3c2C(=O)N(c2ccc(N4CCCCC4=O)cc2)CC3)cc1	109
CN1C[C@@H]2c3ccccc3Oc3ccc(Cl)cc3[C@H]2C1 (racemic)	-0.838
CC(C[N+](C)(C)C)OC(N)=O (stereo not shown)	106
CCN(CC)CCNC(=O)c1ccc(NC(C)=O)cc1	115
CCOC(=O)c1c(C)n(C)c2ccc(O)cc12	64.5
CC(C)c1nc(CN(C)C(=O)N[C@H](C(=O)N[C@@H](Cc2ccccc2)C[C@H](O)[C@H](Cc2ccccc2)NC(=O)OCc2cncs2)C(C)C)cs1	5.94

Set 3
SMILES: Nc1nccc(-c2c(-c3ccc(F)cc3)ncn2C2CCNCC2)n1
Effect on: enzyme activity
Mode: inhibitor
Tested at: 0.5 µM
Relative to: control
target	remaining activity [%]
Cyclin-dependent kinase 1, with cyclin A (CDK1, Homo sapiens, UniProt P06493)	92.7
Dual specificity mitogen-activated protein kinase kinase 1 (MAP2K1, Homo sapiens, UniProt Q02750)	98.2
RAC-beta serine/threonine-protein kinase (AKT2, Homo sapiens, UniProt P31751)	94.8
Ribosomal protein S6 kinase alpha-4 (RPS6KA4, Homo sapiens, UniProt O75676)	98.7
Dual specificity protein kinase CLK3 (CLK3, Homo sapiens, UniProt P49761)	102
Serine/threonine-protein kinase PLK3 (PLK3, Homo sapiens, UniProt Q9H4B4)	97.8
Calcium/calmodulin-dependent protein kinase type 1B (PNCK, Homo sapiens, UniProt Q6P2M8)	94.3
Vascular endothelial growth factor receptor 2 (KDR, Homo sapiens, UniProt P35968)	102
Discoidin domain-containing receptor 2 (DDR2, Homo sapiens, UniProt Q16832)	107
cGMP-dependent protein kinase 2 (PRKG2, Homo sapiens, UniProt Q13237)	97.2
Serine/threonine-protein kinase MARK2 (MARK2, Homo sapiens, UniProt Q7KZI7)	97
Serine/threonine-protein kinase MRCK beta (CDC42BPB, Homo sapiens, UniProt Q9Y5S2)	101
Serine/threonine-protein kinase DCLK2 (DCLK2, Homo sapiens, UniProt Q8N568)	99.9

Set 4
Target: Beta-1 adrenergic receptor (ADRB1, Homo sapiens, UniProt P08588)
Sequence of UniProt P08588 (whole entry, looked up): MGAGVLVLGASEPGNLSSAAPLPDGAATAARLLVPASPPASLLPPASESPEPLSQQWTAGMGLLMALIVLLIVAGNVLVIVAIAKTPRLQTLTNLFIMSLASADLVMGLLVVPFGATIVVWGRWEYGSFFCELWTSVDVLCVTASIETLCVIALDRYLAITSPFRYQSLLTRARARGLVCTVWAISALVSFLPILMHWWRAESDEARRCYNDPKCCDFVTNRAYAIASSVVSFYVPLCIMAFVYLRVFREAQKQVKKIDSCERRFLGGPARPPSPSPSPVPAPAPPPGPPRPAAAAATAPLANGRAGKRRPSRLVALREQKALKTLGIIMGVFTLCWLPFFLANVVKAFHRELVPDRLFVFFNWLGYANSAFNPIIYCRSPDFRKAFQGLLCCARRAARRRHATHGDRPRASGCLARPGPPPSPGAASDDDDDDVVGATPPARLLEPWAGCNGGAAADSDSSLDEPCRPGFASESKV
Mode: agonist
Compound	EC50 [µM]
CC(O)c1ccc(N2CCN(C(O)[C@H](Cc3ccc(N(C)[S+](=O)([O-])c4cccc5cnccc45)cc3)N(C)C)CC2)cc1 (stereo partly shown)	≥ 100
COc1ccc(Cc2nnc(SCc3cc(=O)oc4ccc5ccccc5c34)o2)cc1	≥ 100
COc1ncc(-c2nccc3c(=O)cc(N(C)c4ccccc4)oc23)cn1	≥ 100
Cc1ccc2c(-c3ccc(NC4CC4)nn3)cccc2n1	≥ 100
O=C(c1cc(-c2ccccc2)nc2ccccc12)N1CCc2c(nc[nH]c2=O)C1	≥ 100
C[S+](=O)([O-])Nc1ccc(OC[C@@H](O)CNCCc2ccc(Cl)c(Cl)c2)cc1	12.6

Repeated from above (set 4):
Compound	EC50 [µM]
Cc1ccc2c(-c3ccc(NC4CC4)nn3)cccc2n1	≥ 100
COc1ccc(Cc2nnc(SCc3cc(=O)oc4ccc5ccccc5c34)o2)cc1	≥ 100
O=C(c1cc(-c2ccccc2)nc2ccccc12)N1CCc2c(nc[nH]c2=O)C1	≥ 100
